Measurements collected from several papers.
A part holds a random share of what one study measured.
Sequence of UniProt Q9BYT3 (whole entry, looked up): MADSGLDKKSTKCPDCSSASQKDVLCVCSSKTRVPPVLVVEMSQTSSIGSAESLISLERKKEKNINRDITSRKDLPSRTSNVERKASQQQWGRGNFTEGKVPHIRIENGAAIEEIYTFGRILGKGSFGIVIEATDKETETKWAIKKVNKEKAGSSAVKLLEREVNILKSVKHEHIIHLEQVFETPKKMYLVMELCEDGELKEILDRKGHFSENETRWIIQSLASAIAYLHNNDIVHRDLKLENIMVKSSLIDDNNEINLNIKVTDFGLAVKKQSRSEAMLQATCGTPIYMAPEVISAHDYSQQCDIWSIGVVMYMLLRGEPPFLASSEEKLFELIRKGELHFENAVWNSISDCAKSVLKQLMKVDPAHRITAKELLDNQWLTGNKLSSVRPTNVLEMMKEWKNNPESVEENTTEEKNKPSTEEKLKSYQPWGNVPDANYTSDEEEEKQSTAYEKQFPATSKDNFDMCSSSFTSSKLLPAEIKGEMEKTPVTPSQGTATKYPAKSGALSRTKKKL
Sequence of UniProt P06493 (whole entry, looked up): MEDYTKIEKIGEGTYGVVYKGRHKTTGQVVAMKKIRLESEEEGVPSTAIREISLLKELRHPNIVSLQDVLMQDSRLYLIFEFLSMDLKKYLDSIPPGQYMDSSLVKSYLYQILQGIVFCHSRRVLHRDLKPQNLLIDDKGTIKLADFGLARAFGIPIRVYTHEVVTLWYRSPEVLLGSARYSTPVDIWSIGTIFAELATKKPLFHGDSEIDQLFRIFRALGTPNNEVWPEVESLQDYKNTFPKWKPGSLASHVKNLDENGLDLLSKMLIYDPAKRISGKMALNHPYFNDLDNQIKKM
Sequence of UniProt O14976 (whole entry, looked up): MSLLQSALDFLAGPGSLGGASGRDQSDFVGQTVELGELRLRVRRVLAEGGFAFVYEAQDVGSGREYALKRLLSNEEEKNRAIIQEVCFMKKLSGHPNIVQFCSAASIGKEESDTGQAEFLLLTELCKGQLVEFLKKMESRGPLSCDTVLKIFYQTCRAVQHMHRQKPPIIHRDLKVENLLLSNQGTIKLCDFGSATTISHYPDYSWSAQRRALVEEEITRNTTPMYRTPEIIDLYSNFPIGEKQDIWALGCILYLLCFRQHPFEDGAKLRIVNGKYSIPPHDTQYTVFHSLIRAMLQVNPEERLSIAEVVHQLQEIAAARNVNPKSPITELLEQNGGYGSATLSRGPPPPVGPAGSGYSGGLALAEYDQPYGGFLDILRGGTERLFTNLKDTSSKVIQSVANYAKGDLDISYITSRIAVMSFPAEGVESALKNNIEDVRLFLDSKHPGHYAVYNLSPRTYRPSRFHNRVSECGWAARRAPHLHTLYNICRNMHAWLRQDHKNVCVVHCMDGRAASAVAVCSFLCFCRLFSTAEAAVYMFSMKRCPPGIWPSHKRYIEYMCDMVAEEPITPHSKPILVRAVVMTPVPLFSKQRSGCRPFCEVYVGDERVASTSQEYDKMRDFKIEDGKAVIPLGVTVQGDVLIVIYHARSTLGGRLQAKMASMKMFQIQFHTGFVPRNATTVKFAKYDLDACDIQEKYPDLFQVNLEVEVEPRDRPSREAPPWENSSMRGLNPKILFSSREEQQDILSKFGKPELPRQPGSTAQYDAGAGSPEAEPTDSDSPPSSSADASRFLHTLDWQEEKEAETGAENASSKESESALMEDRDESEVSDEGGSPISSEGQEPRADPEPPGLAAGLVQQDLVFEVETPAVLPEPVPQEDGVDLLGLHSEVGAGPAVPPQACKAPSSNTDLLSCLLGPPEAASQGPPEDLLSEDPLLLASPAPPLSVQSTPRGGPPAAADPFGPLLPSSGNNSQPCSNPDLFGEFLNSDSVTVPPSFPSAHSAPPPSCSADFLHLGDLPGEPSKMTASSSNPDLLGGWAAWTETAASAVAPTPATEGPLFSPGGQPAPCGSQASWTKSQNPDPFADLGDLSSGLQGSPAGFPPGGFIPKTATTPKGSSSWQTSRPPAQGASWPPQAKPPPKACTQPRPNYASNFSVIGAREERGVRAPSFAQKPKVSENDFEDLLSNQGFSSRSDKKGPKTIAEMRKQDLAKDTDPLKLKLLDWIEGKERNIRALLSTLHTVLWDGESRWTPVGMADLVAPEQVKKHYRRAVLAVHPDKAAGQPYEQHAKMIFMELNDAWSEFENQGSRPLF
Sequence of UniProt Q9HCP0 (whole entry, looked up): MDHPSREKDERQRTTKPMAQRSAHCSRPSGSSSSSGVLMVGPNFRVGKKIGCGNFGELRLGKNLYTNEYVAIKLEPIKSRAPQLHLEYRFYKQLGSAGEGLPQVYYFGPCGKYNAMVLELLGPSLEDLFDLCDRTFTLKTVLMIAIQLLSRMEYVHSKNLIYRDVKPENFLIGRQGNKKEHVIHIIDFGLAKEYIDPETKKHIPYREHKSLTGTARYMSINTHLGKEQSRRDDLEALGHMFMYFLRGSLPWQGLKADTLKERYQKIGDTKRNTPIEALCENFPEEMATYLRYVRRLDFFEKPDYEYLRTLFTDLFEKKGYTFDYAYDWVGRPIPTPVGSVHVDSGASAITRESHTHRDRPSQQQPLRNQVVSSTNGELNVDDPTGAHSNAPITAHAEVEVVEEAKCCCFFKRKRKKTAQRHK
Sequence of UniProt Q16620 (whole entry, looked up): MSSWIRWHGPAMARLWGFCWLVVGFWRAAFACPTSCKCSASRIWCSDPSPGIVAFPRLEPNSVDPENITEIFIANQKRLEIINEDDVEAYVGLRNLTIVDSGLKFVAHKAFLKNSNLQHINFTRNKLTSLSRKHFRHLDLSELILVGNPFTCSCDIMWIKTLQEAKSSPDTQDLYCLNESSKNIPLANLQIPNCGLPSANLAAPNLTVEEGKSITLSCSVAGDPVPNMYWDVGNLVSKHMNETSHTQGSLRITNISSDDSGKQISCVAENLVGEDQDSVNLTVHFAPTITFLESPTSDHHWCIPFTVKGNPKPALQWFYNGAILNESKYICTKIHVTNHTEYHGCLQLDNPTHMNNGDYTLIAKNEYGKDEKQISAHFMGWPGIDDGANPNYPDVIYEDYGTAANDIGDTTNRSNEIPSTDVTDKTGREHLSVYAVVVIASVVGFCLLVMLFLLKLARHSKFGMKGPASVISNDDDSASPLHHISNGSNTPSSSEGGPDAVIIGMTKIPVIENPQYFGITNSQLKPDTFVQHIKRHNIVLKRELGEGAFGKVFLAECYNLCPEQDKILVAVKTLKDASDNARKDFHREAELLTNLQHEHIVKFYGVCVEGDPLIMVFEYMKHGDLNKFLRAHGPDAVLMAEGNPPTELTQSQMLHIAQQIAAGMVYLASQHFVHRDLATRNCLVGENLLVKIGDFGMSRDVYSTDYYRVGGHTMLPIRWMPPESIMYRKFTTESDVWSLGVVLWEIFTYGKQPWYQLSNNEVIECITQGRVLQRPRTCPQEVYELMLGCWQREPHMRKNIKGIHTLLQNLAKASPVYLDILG
Sequence of UniProt Q92630 (whole entry, looked up): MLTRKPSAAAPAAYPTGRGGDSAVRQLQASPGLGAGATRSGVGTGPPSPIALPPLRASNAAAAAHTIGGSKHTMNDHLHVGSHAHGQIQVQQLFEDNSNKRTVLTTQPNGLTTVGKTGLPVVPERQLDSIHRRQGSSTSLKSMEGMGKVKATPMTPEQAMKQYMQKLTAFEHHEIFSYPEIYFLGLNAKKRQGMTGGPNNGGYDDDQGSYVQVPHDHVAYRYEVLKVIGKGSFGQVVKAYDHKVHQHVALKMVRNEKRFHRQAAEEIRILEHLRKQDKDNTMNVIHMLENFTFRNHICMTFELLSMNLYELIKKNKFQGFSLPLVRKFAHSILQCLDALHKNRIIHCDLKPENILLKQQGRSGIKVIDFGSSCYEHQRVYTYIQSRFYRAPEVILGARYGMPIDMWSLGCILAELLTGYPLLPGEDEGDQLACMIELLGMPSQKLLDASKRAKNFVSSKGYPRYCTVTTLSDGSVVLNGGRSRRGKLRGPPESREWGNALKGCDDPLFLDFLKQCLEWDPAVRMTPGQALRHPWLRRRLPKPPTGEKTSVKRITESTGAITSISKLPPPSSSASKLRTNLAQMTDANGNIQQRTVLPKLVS

Set 1
Target: Calcium/calmodulin-dependent protein kinase type II subunit alpha (CAMK2A, Homo sapiens, UniProt Q9UQM7)
Sequence of UniProt Q9UQM7 (whole entry, looked up): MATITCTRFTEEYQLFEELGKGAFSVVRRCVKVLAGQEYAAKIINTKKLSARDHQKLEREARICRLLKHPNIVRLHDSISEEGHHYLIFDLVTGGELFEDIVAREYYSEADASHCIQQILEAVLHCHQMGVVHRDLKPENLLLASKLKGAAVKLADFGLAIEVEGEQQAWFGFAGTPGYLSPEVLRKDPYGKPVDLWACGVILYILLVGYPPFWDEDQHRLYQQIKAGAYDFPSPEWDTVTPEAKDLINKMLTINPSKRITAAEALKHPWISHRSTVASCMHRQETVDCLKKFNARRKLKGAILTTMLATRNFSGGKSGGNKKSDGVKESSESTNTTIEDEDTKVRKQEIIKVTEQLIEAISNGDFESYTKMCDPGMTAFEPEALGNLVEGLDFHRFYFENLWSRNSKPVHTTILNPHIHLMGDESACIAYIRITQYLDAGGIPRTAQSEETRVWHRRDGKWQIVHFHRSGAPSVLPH
Read-out: enzyme activity
Action: inhibitor
Tested at: 10 µM
| Compound | inhibition [%] |
| --- | --- |
| CNC(=O)c1c(C)oc2cc(Oc3ncnc4cc(OC)c(OC)cc34)ccc12 | -16 |
| O=C(O)c1cc(/N=N/c2ccc(S(=O)(=O)Nc3ccccn3)cc2)ccc1O | -2 |
| N[C@H](Cc1ccccc1)C(=O)O | -10 |
| COc1cc(O)c2c(=O)c(O)c(-c3ccc(O)c(O)c3)oc2c1 | 4 |
| O=c1c2ccccc2[nH]c2ccccc12 | -31 |
| COC1[C@@H](O)[C@H](O)C(O)[C@H](O)[C@H]1O (stereo partly drawn) | 8 |
| COc1ccc(-c2oc3c(CC=C(C)C)c(O[C@@H]4O[C@H](CO)[C@@H](O)[C@H](O)[C@H]4O)cc(O)c3c(=O)c2O[C@@H]2O[C@@H](C)[C@H](O)[C@@H](O[C@@H]3O[C@H](CO)[C@@H](O)[C@H](O)[C@H]3O)[C@H]2O)cc1 | -6 |

Set 2
Structure (SMILES): Cc1c(NC(=O)c2cc(C(N)=O)nc3cc(F)ccc23)c(C(F)(F)F)nn1Cc1ccc(C#N)cc1
Technique: competition with immobilised ligand
Tested at: 1 µM
| target | read-out | remaining binding |
| --- | --- | --- |
| CAMKK2 (Homo sapiens, UniProt Q96RR4) | cell-free assay | 92% |
| LTK (Homo sapiens, UniProt P29376) | cell-free assay | 82% |
| GAK (Homo sapiens, UniProt O14976) | cell-free assay | 95% |
| KIT (Homo sapiens, UniProt P10721, D816H) | cell-free assay | 60% |
| PDGFRB (Homo sapiens, UniProt P09619) | cell-free assay | 87% |
| ACVR2B (Homo sapiens, UniProt Q13705) | binding | 93% |
| ROCK2 (Homo sapiens, UniProt O75116) | cell-free assay | 99% |
| ABL2 (Homo sapiens, UniProt P42684) | cell-free assay | 74% |
| BLK (Homo sapiens, UniProt P51451) | cell-free assay | 77% |

Set 3
SMILES: O=C(Nc1cnn(-c2csc(C(=O)NC3COC3)c2)c1)Nc1ccccc1Cl
Read-out: enzyme activity
Tested at: 5 µM
| target | action | baseline | remaining activity [%] |
| --- | --- | --- | --- |
| PAK4 (Homo sapiens, UniProt O96013) | – | untreated control | 92.2 |
| CSNK1G1 (Homo sapiens, UniProt Q9HCP0) | – | untreated control | 95.5 |
| NTRK2 (Homo sapiens, UniProt Q16620) | – | untreated control | 83.8 |
| OXSR1 (Homo sapiens, UniProt O95747) | – | untreated control | 92.4 |
| CSNK1G3 (Homo sapiens, UniProt Q9Y6M4) | – | untreated control | 101 |
| MAP3K12 (Homo sapiens, UniProt Q12852) | – | untreated control | 92.4 |
| Myosin-IIIa (MYO3A, Homo sapiens, UniProt Q8NEV4) | inhibitor | – | 94.5 |
| Cyclin-dependent kinase 1, with cyclin E (CDK1, Homo sapiens, UniProt P06493) | – | untreated control | 86.4 |
| DYRK2 (Homo sapiens, UniProt Q92630) | – | untreated control | 87.1 |
| STK33 (Homo sapiens, UniProt Q9BYT3) | – | untreated control | 95.4 |

Set 4
Target: Tyrosine-protein kinase Srms (SRMS, Homo sapiens, UniProt Q9H3Y6)
Sequence of UniProt Q9H3Y6 (whole entry, looked up): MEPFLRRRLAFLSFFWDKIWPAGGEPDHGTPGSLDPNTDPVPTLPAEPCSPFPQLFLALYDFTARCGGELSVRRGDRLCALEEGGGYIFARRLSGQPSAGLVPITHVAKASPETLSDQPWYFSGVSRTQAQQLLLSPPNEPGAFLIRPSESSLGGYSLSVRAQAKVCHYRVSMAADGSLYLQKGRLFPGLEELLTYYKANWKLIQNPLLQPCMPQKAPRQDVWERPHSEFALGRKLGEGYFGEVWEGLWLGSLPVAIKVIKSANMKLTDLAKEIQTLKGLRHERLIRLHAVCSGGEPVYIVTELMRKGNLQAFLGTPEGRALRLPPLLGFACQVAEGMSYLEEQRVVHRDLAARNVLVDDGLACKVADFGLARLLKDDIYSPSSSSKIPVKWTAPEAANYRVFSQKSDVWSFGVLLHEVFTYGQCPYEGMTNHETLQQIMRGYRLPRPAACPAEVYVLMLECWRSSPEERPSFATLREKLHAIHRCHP
Read-out: enzyme activity
Action: inhibitor
Tested at: 0.5 µM
Baseline: control
| Compound | remaining activity |
| --- | --- |
| O=S(=O)(c1cccc2cnccc12)N1CCCNCC1 | 97.5% |
| Cn1sc(=O)n(Cc2ccccc2)c1=O | 96.2% |
| COc1cc2ncnc(Nc3ccc(F)c(Cl)c3)c2cc1OCCCN1CCOCC1 | 96.4% |
| COc1ccc(CNC(=O)Nc2ncc([N+](=O)[O-])s2)cc1 | 93.3% |
| COc1ccc(C(=O)Nc2sc3c(c2C(N)=O)CCCC3)cc1OC | 91% |
| Nc1ccc2ncnc(NCCc3ccc(Oc4ccccc4)cc3)c2c1 | 99.2% |
| NCCNc1ncc(C(N)=O)c(Nc2cccc(C(F)(F)F)c2)n1 | 105% |
| COc1ccc(OC)c2c(=S)c3ccccc3[nH]c12 | 83.5% |
| CNC(=O)c1cc(Oc2ccc(NC(=O)Nc3ccc(Cl)c(C(F)(F)F)c3)cc2)ccn1 | 107% |
| O=C1NC(=O)C(c2cn(CCCO)c3ncccc23)=C1c1cnccn1 | 95.9% |
| O=C(O)c1ccc2c3c1cccc3c(=O)n1c3ccccc3nc21 | 106% |
| Cc1nc(-c2ccccc2)c(-c2ccncc2)o1 | 102% |
| OCC(O)CCON=C1C(c2c(O)[nH]c3ccccc23)=Nc2ccccc21 (stereo not drawn) | 102% |
| N#CC(C#N)=C(N)/C(C#N)=C/c1ccc(O)cc1 | 107% |
| Cc1ccc(Nc2nccc(N(C)c3ccc4c(C)n(C)nc4c3)n2)cc1S(N)(=O)=O | 115% |
| O=c1c2ccccc2[nH]c(=S)n1CCN1CCC(=C(c2ccc(F)cc2)c2ccc(F)cc2)CC1 | 96.7% |

Some of these lines once more (set 4):
| Compound | remaining activity |
| --- | --- |
| Cc1nc(-c2ccccc2)c(-c2ccncc2)o1 | 102% |
| OCC(O)CCON=C1C(c2c(O)[nH]c3ccccc23)=Nc2ccccc21 (stereo not drawn) | 102% |
| N#CC(C#N)=C(N)/C(C#N)=C/c1ccc(O)cc1 | 107% |
| Cc1ccc(Nc2nccc(N(C)c3ccc4c(C)n(C)nc4c3)n2)cc1S(N)(=O)=O | 115% |
| O=c1c2ccccc2[nH]c(=S)n1CCN1CCC(=C(c2ccc(F)cc2)c2ccc(F)cc2)CC1 | 96.7% |
